{"data": "Published values from different studies", "note": "Every numbered part comes from another study and shows a few of its results, in no order."}
{"data": "Block 1", "target": "RNA binding protein fox-1 homolog 2, RRM domain, GST-SBP tag (RBFOX2, Homo sapiens, UniProt O43251-10, residues 100-194)", "technique": "RNA Bind-n-Seq", "form": "RNA", "medium": "in vitro", "concentration": "365 nM", "setting": "natural RNA segment, single round, ends assumed", "reference": "no-protein control", "direction": "higher = stronger binding", "Target sequence (chain)": "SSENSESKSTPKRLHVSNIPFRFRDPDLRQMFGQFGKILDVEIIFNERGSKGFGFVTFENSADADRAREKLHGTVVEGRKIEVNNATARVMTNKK"}
{"Sequence": "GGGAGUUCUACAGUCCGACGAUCCCAAGAAGUUUUUUGGGCAAAAAUCUUGGAUCAUUUUUAUGUAGCAUGAUUUUCCUUGGGAUGCAAAUCUGAAACAGUCCUUUAACAUGAACAAUCUGCAGCACACUGAAUGGAAUUCUCGGGUGCCAA", "RBNS enrichment (R)": 0.98}
{"Sequence": "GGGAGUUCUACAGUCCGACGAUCGAGGCCUUUGAGUUCCCACUCAAUACCUCUCCCUCUUUACAGAAGAGAGGGGUGGGGGGAGCCUUGGUUGGUCUGAGCAGUGGCUGUGAAAUCCUCCCAAUGGGCACAGAUGGAAUUCUCGGGUGCCAA", "RBNS enrichment (R)": 0.386}
{"Sequence": "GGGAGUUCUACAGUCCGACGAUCAAACUUCGUCCUCUGAAAUGCUUUUCUGUACUAAACUAACUUGAACGUGACCUAGAAACCAAGAGAUACUGCUUCAUGUGUGGUCUUUAUUGGGCCACAGGAGGGUCAAUUGGAAUUCUCGGGUGCCAA", "RBNS enrichment (R)": 0.315}
{"Sequence": "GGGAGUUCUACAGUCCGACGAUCAGGAAACGCUGCAGGGGCCACAGGCACAGGCUGAUAUUUAAAGAUCUUUGCUUGCAGCCCUCCGUCCUGCUGAAAACCCCCAUAAGCCAGUGAACACAGAGCAGCUAGAGUGGAAUUCUCGGGUGCCAA", "RBNS enrichment (R)": 0.569}
{"Sequence": "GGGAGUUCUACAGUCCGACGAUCCUUAACAGUUGCCCGGUCCUGCUGGCCCCUUUUCCUCUGGCCCCCCUCUUCUGAAACAGGAUGUGCACACAUGGGCCAUAGCCCUAAGGACUCCUGCCAGACCACACAGCUGGAAUUCUCGGGUGCCAA", "RBNS enrichment (R)": 0.339}
{"Sequence": "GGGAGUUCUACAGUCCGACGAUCCCACAACAGCAUGUAAUUUUAGCCAAGAUAUGUCCUGUUACUAAGUAUCUCCCAAUGCUUUAGUAAAACGUAUUUAGGAGAAAUGUUGAAAAUGUACAUGAAGCUCCUUUUGGAAUUCUCGGGUGCCAA", "RBNS enrichment (R)": 11.3}
{"Sequence": "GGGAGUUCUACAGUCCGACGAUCUCCAGCCCAAGAGGGACUCCUGGCUGCCCACAUGGCCUAAGAUGUGGGUCCUGGAUCCUUCCCCCCUUCUCACCAUAACCCCCUCUCAGUGUUUCCCCAACUUCUCCCUUUGGAAUUCUCGGGUGCCAA", "RBNS enrichment (R)": 1.15}
{"Sequence": "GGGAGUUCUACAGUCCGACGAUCGGUGUCCAGAGGUGUGAAAUAUACCAUGUAAUCUCACACAGGUGGACUGUGGAACCGUUUUUAUGGAUUUUGCCCCUGCUUGCUUUCAUCCUGUAACCUAGCCUGUAUUAUGGAAUUCUCGGGUGCCAA", "RBNS enrichment (R)": 5.85}
{"data": "Block 2", "target": "Prothrombin, mature alpha-thrombin (F2, Homo sapiens, UniProt P00734)", "technique": "aptamer microarray, sandwich", "form": "DNA with 2'F-ANA", "medium": "in vitro", "concentration": "200 nM", "setting": "whole 15-mer aptamer, many near background", "together with": "Cy3 exosite-II aptamer, 400 nM", "direction": "higher = stronger binding", "sequence": "GGTTGGTGTGGTTGG"}
{"Modification": "2'F-ANA at 1 3 4 6 12", "mean fluorescence intensity [a.u.]": 414}
{"Modification": "2'F-ANA at 1 2 4 5 7 9 10 11 13 14 15", "mean fluorescence intensity [a.u.]": 48.7}
{"Modification": "2'F-ANA at 4 5 6 7 10 15", "mean fluorescence intensity [a.u.]": 46.1}
{"Modification": "2'F-ANA at 3 7 8 11 13 15", "mean fluorescence intensity [a.u.]": 1080}
{"Modification": "2'F-ANA at 1 2 3 5 7 8 9 10 11 15", "mean fluorescence intensity [a.u.]": 47.9}
{"Modification": "2'F-ANA at 1 2 3 4 8 9 10 11 14 15", "mean fluorescence intensity [a.u.]": 60.2}
{"Modification": "2'F-ANA at 3 5 7 8 9 10 11 13 14 15", "mean fluorescence intensity [a.u.]": 75.4}
{"Modification": "2'F-ANA at 1 2 3 5 7 8 10 14", "mean fluorescence intensity [a.u.]": 45}
{"Modification": "2'F-ANA at 4 6 10 13 15", "mean fluorescence intensity [a.u.]": 137}
{"Modification": "2'F-ANA at 1 2 6 8 9 12", "mean fluorescence intensity [a.u.]": 332}
{"Modification": "2'F-ANA at 1 3 4 5 7 9 10 12 13", "mean fluorescence intensity [a.u.]": 52.2}
{"Modification": "2'F-ANA at 1 2 4 6 8 10", "mean fluorescence intensity [a.u.]": 52.8}
{"Modification": "2'F-ANA at 3 4 5 6 7 11 12 13 14", "mean fluorescence intensity [a.u.]": 107}
{"data": "Block 3", "target": "Interferon regulatory factor 3, full length, phosphomimetic (IRF3, Homo sapiens, UniProt Q14653, residues 1-427, S386D/S396D/S398D/S402D/T404D/S405D)", "technique": "protein-binding microarray", "form": "double-stranded DNA, one strand shown", "medium": "in vitro", "concentration": "2540 nM top", "setting": "60-bp whole probe", "together with": "salmon DNA 0.4 mg/ml", "reference": "random background probes", "direction": "higher = stronger binding", "shared flanks, not repeated": "GCCTAGCAC … GTCTTGATTCGCTTGACGCTGCTG", "Target sequence (chain)": "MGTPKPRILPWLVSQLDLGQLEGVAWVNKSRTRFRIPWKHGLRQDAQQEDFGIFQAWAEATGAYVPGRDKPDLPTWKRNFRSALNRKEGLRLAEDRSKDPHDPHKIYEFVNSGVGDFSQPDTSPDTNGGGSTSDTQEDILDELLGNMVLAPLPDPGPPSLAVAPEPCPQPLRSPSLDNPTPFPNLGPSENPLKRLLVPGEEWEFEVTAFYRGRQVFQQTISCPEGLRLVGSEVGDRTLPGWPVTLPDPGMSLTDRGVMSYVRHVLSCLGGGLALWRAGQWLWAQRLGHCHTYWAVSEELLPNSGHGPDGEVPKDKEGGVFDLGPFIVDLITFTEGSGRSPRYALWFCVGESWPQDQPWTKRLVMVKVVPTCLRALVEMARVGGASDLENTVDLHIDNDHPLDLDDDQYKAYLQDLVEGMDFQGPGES"}
{"Sequence": "TAAGGTATCCTTTTCCTTTAGTGCTAG", "fitted relative affinity [z-score]": 8.44}
{"Sequence": "GATGGTATCCTTTTCCTGACGTGCTAG", "fitted relative affinity [z-score]": 7.81}
{"Sequence": "GACGGACTGGGGACTGGGGAAGTGCTA", "fitted relative affinity [z-score]": -0.948}
{"Sequence": "CAGTTTATTTATTTTTACATGTGCTAG", "fitted relative affinity [z-score]": 1.58}
{"Sequence": "GACGGTGTCGGGTATCGGGACGTGCTA", "fitted relative affinity [z-score]": 1.22}
{"Sequence": "TTAGGTATCGGGTATCGATTAGTGCTA", "fitted relative affinity [z-score]": 1.69}
{"Sequence": "TCAACTCTCTGCTTGTGACTGTGCTAG", "fitted relative affinity [z-score]": 0.0926}
{"Sequence": "TTAGGTTTCCTTAGCCTTTAGTGCTAG", "fitted relative affinity [z-score]": 4.1}
{"Sequence": "TTAGGTTTCGTGTTTCGGTTAGTGCTA", "fitted relative affinity [z-score]": 4.83}
{"Sequence": "TTAGTTTTCCTTTTCCTTTAGTGCTAG", "fitted relative affinity [z-score]": 9.59}
{"data": "Single results of other studies"}
{"Substance": "PhoQ, residues 284 288 289 292 302 303 SLGVVW", "target": "PhoP, residues 12 14 15 18 19 NMSSL (Escherichia coli, UniProt P23836)", "test": "Sort-seq, item: YFP reporter", "system": "E. coli", "setting": "PhoQ-PhoP variant library, together with: 10 µM Mg2+", "how to read": "reference: high Mg2+ state, higher = stronger signaling", "endpoint": "fold induction", "result": 21.8}
